Assay results of several laboratories.
Numbered parts are unrelated; each lists some results of a single study. Values joined by “and” are separate records of one study, mostly repeats; a detail may differ.

Block 1 — technique: DNA microarray; relative to: untreated cells; quantity: mRNA level ratio
Compound: COCC1CC2C(CCC3(C)C(O)CCC23)c2ccc(O)cc21 (stereo not shown)
cell line = SK-OV-3; measured = OLIG2; tested at = concentration not given; notes = lower dose arm; value = 10.2
cell line = PANC-1; measured = CCL8; tested at = concentration not given; notes = higher dose arm; value = 28.3
cell line = PANC-1; measured = GZMK; tested at = concentration not given; notes = lower dose arm; value = 1
cell line = PANC-1; measured = GAPDH; tested at = concentration not given; notes = higher dose arm; value = 0.988 and 0.925 and 0.977 and 0.985 and 1
cell line = PANC-1; measured = ACTA2; tested at = concentration not given; notes = higher dose arm; value = 0.759
cell line = SK-OV-3; measured = MCM6; tested at = concentration not given; notes = higher dose arm; value = 0.784
cell line = A549; measured = IL28A; tested at = 50 µM; value = 2.66
cell line = A549; measured = IL20RA; tested at = 50 µM; value = 11.5

Block 2 — effect on: kinase activity; mode: inhibitor; technique: ADP-Glo; tested at: 0.0741 µM; quantity: inhibition
Target: Cyclin-dependent kinase 12, with cyclin K (CDK12, Homo sapiens, UniProt Q9NYV4)
Sequence of UniProt Q9NYV4 (whole entry, looked up): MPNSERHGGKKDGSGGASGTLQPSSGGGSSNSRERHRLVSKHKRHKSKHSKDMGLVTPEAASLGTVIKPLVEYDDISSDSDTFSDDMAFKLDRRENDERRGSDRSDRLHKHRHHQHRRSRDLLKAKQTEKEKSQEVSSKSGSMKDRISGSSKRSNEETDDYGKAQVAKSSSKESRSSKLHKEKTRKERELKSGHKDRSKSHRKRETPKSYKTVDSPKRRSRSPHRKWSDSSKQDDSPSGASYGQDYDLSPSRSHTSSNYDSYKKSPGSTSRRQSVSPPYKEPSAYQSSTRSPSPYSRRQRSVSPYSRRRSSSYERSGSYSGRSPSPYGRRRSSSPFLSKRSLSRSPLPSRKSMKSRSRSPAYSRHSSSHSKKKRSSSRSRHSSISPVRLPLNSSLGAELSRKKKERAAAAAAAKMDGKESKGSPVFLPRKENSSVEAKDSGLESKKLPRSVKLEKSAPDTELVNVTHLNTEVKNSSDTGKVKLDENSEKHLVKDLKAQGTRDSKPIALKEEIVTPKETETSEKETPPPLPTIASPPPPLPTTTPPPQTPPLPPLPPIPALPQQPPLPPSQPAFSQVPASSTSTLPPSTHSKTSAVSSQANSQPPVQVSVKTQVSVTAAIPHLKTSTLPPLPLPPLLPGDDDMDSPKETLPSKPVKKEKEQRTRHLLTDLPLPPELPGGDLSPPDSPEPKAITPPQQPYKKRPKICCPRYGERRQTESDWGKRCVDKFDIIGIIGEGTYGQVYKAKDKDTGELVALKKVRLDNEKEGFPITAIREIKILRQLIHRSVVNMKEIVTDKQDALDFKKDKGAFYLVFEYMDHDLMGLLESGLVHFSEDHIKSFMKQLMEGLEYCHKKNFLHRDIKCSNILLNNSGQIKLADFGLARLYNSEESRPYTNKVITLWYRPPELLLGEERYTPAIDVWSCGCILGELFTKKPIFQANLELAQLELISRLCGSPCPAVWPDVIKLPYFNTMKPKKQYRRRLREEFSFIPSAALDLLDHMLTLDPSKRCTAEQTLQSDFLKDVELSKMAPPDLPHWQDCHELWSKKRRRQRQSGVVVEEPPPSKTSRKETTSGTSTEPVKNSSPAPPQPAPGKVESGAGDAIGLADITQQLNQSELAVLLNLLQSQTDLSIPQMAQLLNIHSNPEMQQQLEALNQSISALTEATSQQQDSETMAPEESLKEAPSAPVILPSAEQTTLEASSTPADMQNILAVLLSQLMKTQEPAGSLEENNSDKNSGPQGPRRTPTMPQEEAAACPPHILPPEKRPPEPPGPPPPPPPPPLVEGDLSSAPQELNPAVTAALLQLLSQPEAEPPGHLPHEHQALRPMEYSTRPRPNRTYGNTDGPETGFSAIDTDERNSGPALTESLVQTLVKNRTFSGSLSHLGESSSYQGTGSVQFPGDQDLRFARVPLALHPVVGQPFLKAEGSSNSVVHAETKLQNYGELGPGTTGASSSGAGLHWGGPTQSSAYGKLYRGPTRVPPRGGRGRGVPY
SMILES = CC(=O)N1CCN(c2nc(NCc3nc4cc(Cl)c(Cl)cc4[nH]3)c3ncn(-c4cnn(C)c4)c3n2)CC1; value = 29.2%
SMILES = CCn1cnc2c(NCc3nc4cc(Cl)c(Cl)cc4[nH]3)nc(N3CCN(S(C)(=O)=O)CC3)nc21; value = 31.7%
SMILES = CCn1cnc2c(NCc3nc4cc(Cl)c(Cl)cc4[nH]3)nc(N3CCN(C(C)=O)CC3)nc21; value = 46.2%
SMILES = CCn1cnc2c(NCc3nc4cc(Cl)c(Cl)cc4[nH]3)nc(N3CCN(C(=O)c4ccccc4)CC3)nc21; value = 48.6%
SMILES = Cn1cc(-n2cnc3c(NCc4nc5cc(Cl)c(Cl)cc5[nH]4)nc(N4CCNCC4)nc32)cn1; value = 11.6%
SMILES = CCn1cnc2c(NCc3nc4cc(Cl)c(Cl)cc4[nH]3)nc(N3CCN(C(=O)c4ccncc4)CC3)nc21; value = 49.5%
SMILES = CCn1cnc2c(NCc3nc4cc(Cl)c(Cl)cc4[nH]3)nc(N3CCN(C(=O)c4cccnc4)CC3)nc21; value = 28.4%
SMILES = CCn1cnc2c(NCc3nc4cc(Cl)c(Cl)cc4[nH]3)nc(N3CCn4ncnc4C3)nc21; value = 65.1%

Block 3 — organism: Arabidopsis thaliana; strain: Col-0; tested at: 6.25 µg/mL; notes: seed germination; quantity: root length
Compound = O=C(O)C1(O)Oc2cc(Br)ccc2N(Cc2ccccc2)C1=O (stereo not shown); value = 1.05 cm
Compound = CCCN1C(=O)C(O)(C(=O)O)Oc2cc(F)ccc21 (stereo not shown); value = 0.922 cm
Compound = COc1ccc2c(c1)OC(O)(C(=O)O)C(=O)N2Cc1ccccc1 (stereo not shown); value = 1.18 cm
Compound = O=C(O)C1(O)Oc2cc(Cl)ccc2N(Cc2ccccc2)C1=O (stereo not shown); value = 1.22 cm
Compound = O=C(O)C1Oc2cc(F)ccc2N(Cc2ccccc2)C1=O (stereo not shown); value = 1.06 cm
Compound = CC(C)(C)c1ccc(Oc2ccc3c(c2)OC(O)(C(=O)O)C(=O)N3Cc2ccccc2)cc1 (stereo not shown); value = 0.92 cm
Compound = O=C(O)C1(O)Oc2ccccc2N(Cc2ccccc2)C1=O (stereo not shown); value = 1.25 cm
Compound = CN1C(=O)C(O)(C(=O)O)Oc2cc(F)ccc21 (stereo not shown); value = 1.05 cm

Mixed results
SMILES = Cn1cc(-c2cccc(CN3CCC4(CC3)COc3c4ccc4c3CN([C@H]3CCC(=O)NC3=O)C4=O)c2)cn1; host = Crbn I391V mouse, MC-38 tumour; route = oral, daily; dose = 30 mg/kg; time = day 15; notes = anti-PD1 combination study; quantity = body weight change; value = 2.4% and -4.4% and 6.5% and 0%

For quick reference, copied from above (mixed results):
SMILES = Cn1cc(-c2cccc(CN3CCC4(CC3)COc3c4ccc4c3CN([C@H]3CCC(=O)NC3=O)C4=O)c2)cn1; host = Crbn I391V mouse, MC-38 tumour; route = oral, daily; dose = 30 mg/kg; time = day 15; notes = anti-PD1 combination study; quantity = body weight change; value = 2.4% and -4.4% and 6.5% and 0%
